Measured values pooled from the literature.
Every numbered part comes from another study and shows a few of its results, in no order. “And” joins repeats or separate records; there may be more than shown.

Series 1 — cell line: A-375; tested at: 100 µM; time: 18 h; endpoint: viability
CN1C[C@@H]2c3ccccc3Oc3ccc(Cl)cc3[C@H]2C1 (racemic): 8.2%
COc1ccc(-n2nc(C(N)=O)c3c2C(=O)N(c2ccc(N4CCCCC4=O)cc2)CC3)cc1: 88.5%
CC(=O)Nc1ncc([N+](=O)[O-])s1: 93.5%
CC(=O)Oc1cc(C)c(OC(C)=O)c2ccccc12: 17.2%
Nc1nc(F)nc2c1ncn2[C@@H]1O[C@H](COP(=O)(O)O)[C@@H](O)[C@@H]1O: 93%
c1ccc(Cc2nc3ccccc3[nH]2)cc1: 87.7%
N#CC(c1ccc(Cl)cc1)c1c(Cl)cc(-n2ncc(=O)[nH]c2=O)cc1Cl (stereo not drawn): 35.9%
Nc1ccc(/N=N/c2ccccc2)c(N)n1: 68.6%
CN1C(C(=O)Nc2ccccn2)=C(O)c2sccc2S1(=O)=O: 106%
O=C1CCC(N2C(=O)c3ccccc3C2=O)C(=O)N1 (stereo not drawn): 102%
O=C(O)CCc1nc2ccccc2[nH]1: 101%
C=CC1=C(C(=O)O)N2C(=O)[C@@H](NC(=O)/C(=N\O)c3csc(N)n3)[C@H]2SC1: 102%

Series 2 — effect on: enzyme activity; mode: inhibitor; tested at: 0.5 µM; relative to: control; endpoint: remaining activity
Target: Serine/threonine-protein kinase WNK3 (WNK3, Homo sapiens, UniProt Q9BYP7)
Sequence of UniProt Q9BYP7 (whole entry, looked up): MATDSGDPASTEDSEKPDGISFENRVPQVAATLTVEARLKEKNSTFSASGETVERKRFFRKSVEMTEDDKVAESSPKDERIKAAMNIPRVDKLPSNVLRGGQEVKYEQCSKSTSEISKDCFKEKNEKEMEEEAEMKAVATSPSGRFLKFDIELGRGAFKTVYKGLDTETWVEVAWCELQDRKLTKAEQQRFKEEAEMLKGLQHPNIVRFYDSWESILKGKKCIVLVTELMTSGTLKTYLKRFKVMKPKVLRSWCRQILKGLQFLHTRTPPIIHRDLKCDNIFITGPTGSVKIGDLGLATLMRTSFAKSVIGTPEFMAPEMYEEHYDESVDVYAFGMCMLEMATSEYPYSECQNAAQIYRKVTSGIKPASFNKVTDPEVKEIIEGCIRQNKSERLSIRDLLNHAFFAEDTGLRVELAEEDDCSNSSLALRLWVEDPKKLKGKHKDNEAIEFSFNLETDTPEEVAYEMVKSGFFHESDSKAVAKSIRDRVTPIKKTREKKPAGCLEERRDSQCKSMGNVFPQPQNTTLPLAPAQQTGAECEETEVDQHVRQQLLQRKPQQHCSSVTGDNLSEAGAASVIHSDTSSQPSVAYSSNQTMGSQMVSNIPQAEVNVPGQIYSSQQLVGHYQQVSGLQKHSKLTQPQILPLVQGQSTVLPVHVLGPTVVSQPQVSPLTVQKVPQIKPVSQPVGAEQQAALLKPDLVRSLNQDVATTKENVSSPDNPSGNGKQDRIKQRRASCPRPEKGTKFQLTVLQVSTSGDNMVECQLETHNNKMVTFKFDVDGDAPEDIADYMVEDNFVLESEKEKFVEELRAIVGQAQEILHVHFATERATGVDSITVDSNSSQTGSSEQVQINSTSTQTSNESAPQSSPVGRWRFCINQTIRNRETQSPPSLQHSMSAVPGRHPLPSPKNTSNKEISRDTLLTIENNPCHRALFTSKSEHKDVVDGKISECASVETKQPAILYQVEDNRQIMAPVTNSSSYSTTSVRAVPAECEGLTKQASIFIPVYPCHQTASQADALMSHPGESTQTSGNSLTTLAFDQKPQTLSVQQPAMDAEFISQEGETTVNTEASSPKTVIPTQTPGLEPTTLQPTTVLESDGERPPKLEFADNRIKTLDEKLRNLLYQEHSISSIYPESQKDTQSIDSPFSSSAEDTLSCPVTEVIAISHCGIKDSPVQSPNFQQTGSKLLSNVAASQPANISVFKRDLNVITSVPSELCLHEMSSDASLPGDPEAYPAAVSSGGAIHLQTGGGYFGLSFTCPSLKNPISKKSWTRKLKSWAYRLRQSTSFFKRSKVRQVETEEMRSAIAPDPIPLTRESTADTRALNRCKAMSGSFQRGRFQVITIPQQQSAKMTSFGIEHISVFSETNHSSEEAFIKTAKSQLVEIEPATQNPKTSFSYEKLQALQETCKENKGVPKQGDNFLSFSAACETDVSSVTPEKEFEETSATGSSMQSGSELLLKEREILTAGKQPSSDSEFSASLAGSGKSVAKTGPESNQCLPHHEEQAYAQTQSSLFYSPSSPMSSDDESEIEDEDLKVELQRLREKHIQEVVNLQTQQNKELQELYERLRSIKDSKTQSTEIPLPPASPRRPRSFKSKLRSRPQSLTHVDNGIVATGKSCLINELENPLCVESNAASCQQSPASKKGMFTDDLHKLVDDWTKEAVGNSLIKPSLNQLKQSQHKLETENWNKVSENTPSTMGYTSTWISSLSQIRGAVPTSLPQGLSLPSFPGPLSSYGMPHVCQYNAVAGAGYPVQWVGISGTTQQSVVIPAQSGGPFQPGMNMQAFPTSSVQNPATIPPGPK
O=C1C(Cl)=C(N2C(=O)CCC2=O)C(=O)c2ccccc21: 96.4%
CN([C@@H](Cc1ccc(OS(=O)(=O)c2cccc3cnccc23)cc1)C(=O)N1CCN(c2ccccc2)CC1)S(=O)(=O)c1cccc2cnccc12: 101%
CCN(CC)C(=O)c1ccc(Nc2nc(OCC3CCCCC3)c3[nH]cnc3n2)cc1: 80.6%
Nc1cccc(-c2cc3c(Oc4cccc(O)c4)ncnc3[nH]2)c1: 88.5%
c1ccc(-c2cnc(Nc3ccc(OCCN4CCCC4)cc3)s2)cc1: 99%
O=C1c2ccccc2-c2n[nH]c3cccc1c23: 89.9%
COc1cc2c(cc1OC)-c1[nH]nc(Nc3cccc(F)c3)c1C2: 104%
N#Cc1c(NC(=O)c2cccc3ccccc23)sc2c1CCCC2: 99.2%
Cc1cn(-c2cc(NC(=O)c3ccc(C)c(Nc4nccc(-c5cccnc5)n4)c3)cc(C(F)(F)F)c2)cn1: 100%
O=c1cc(-c2cccc3c2Sc2ccccc2S3)oc(N2CCOCC2)c1: 109%
CN(C)C[C@H]1CCn2c(c(C3=C(c4cn(C)c5ccccc45)C(=O)NC3=O)c3ccccc32)C1: 100%
COc1cc2ncnc(Nc3cccc(Cl)c3)c2cc1OC: 97.8%
Cc1nc2cc3nc(-c4cccs4)cnc3cc2n1C: 96.9%
CCN(CC)CCNC(=O)c1c(C)[nH]c(/C=C2\C(=O)Nc3ccc(F)cc32)c1C: 94.3%
C[C@@H]1CCN(C(=O)CC#N)C[C@@H]1N(C)c1ncnc2[nH]ccc12: 104%
N#C/C(=C\c1ccc(O)c(O)c1)C(=O)NCc1ccccc1: 95%
Cc1cc2ncc(-c3ccccc3)nc2cc1C: 103%
CCOc1nc(NC(=O)Cc2cc(OC)ccc2OC)cc(N)c1C#N: 93.3%
COc1cc2ncnc(Nc3ccc(O)c(Br)c3)c2cc1OC: 95.7%

Series 3 — technique: ATPlite; endpoint: viability
SMILES: C[C@@H]1CN(c2ccc(-c3cc(C(=O)NCCOCCOCCOCCOCCNC(=O)/C=C/c4[nH]cc(C(=O)N[C@@H](CC(N)=O)c5ccc(F)c(Cl)c5)c4-c4ccc(Cl)cc4F)ccc3F)cc2NC(=O)c2c[nH]c(=O)cc2C(F)(F)F)C[C@H](C)N1C
MV4-11 expressing HiBiT-WDR5; RPMI with 10% FBS; 13.3 nM, 24 h: 86.4% and 106% and 91%
MV4-11 expressing HiBiT-WDR5; RPMI with 10% FBS; 2 nM, 24 h: 110% and 118% and 101%
MV4-11 expressing HiBiT-WDR5; RPMI with 10% FBS; 34.2 nM, 24 h: 117% and 98.1% and 95.3%
MV4-11 expressing HiBiT-WDR5; RPMI with 10% FBS; 585 nM, 24 h: 109% and 116% and 102%
MV4-11; 1 µM, 5 days; relative to: DMSO: 86.2% and 84.7% and 76.2% and 66.1%
MV4-11 expressing HiBiT-WDR5; RPMI with 10% FBS; 227 nM, 24 h: 120% and 119% and 124%
MV4-11; 0.01 µM, 5 days; relative to: DMSO: 92.4% and 75.9% and 74.2% and 99.8%

Further values, each from its own experiment
CN(C)C(=O)/C(C#N)=C/c1ccc(-c2nc3cnc4[nH]ccc4c3n2C2CCCCC2)o1  viability (normal-adjacent epithelium patient-derived organoids sample H; CellTiter-Glo; 0.1 µM; relative to: DMSO): 81.9% and 129%

A few entries again (series 2):
CCN(CC)CCNC(=O)c1c(C)[nH]c(/C=C2\C(=O)Nc3ccc(F)cc32)c1C: 94.3%
c1ccc(-c2cnc(Nc3ccc(OCCN4CCCC4)cc3)s2)cc1: 99%
COc1cc2ncnc(Nc3ccc(O)c(Br)c3)c2cc1OC: 95.7%
CN(C)C[C@H]1CCn2c(c(C3=C(c4cn(C)c5ccccc45)C(=O)NC3=O)c3ccccc32)C1: 100%
Cc1nc2cc3nc(-c4cccs4)cnc3cc2n1C: 96.9%
N#C/C(=C\c1ccc(O)c(O)c1)C(=O)NCc1ccccc1: 95%
